# Experimental data of several laboratories.
# Each line is one published result; not all experiments were run side by side. ± marks the error that the study gave.
# CHRM3: Muscarinic acetylcholine receptor M3 (CHRM3, Homo sapiens, UniProt P20309)
# Chain of UniProt P20309 (whole entry, looked up): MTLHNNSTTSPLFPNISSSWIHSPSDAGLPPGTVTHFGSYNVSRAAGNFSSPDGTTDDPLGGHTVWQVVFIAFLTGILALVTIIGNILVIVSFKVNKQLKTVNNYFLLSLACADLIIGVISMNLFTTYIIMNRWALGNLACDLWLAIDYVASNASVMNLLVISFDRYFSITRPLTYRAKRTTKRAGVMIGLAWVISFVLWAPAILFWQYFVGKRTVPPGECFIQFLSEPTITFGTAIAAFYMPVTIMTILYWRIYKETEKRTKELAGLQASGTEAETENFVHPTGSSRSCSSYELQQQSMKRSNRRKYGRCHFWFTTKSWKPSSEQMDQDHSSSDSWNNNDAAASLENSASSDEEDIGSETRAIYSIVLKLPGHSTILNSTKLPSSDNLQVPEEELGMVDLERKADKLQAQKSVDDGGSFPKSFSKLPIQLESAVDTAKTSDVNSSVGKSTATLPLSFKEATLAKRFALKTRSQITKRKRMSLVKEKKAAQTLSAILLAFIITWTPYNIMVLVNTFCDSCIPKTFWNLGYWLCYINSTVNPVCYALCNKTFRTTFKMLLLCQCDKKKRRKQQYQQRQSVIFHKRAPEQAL
# TDP1: Tyrosyl-DNA phosphodiesterase 1 (TDP1, Homo sapiens, UniProt Q9NUW8)
# Chain of UniProt Q9NUW8 (whole entry, looked up): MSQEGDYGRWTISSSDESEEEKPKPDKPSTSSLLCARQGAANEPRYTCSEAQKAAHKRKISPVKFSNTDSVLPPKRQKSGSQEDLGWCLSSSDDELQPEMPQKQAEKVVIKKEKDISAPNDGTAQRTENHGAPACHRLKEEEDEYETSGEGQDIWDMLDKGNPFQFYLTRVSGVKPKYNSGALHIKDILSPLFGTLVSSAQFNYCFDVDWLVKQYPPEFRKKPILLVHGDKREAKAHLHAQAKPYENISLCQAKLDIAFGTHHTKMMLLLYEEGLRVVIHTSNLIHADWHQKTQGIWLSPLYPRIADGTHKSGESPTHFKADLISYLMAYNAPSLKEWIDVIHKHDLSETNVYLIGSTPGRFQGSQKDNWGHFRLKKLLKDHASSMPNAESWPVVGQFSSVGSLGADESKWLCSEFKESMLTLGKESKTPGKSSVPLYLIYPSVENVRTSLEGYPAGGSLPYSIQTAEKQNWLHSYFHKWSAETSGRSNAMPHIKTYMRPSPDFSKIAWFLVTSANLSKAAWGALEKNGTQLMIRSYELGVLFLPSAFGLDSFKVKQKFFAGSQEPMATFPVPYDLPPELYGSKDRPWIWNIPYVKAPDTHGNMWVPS
Compound,target,assay,system,setting,scale,quantity,value
CCCCCCOc1ccc(C(=O)OCC[N+]2(C)CC=CCC2)cc1 (stereo not shown),CHRM3,,membranes,"10 µM, 15 h, no carbachol",relative to: control,basal binding,0.79 ± 0.05 fold
COc1ccc(C(=O)Nc2c(-c3cccs3)nc3ccccn23)cc1,CHRM3,"ligand displacement, radioligand",,10 µM,,inhibition,< 50%
C[Si](C)(C)C[C@H](CN)CC(=O)O,CHRM3,"ligand displacement, radioligand",,250 µM,,inhibition,10%
Cn1nc(C=NOCc2ccc3nc(-c4ccccc4)c(Nc4ccc(C(=O)O)cc4)n3c2)cc1-c1ccccc1 (mixture of isomers),TDP1,"enzyme activity, inhibitor",,"100 µM, unpurified compound",,inhibition,6.7%
COc1ccc(S(=O)(=O)N2CCc3ccccc3C2)cc1N1CCN(C(=O)c2ccc(F)cc2C(F)(F)F)CC1,CHRM3,"ligand displacement, radioligand",,1 µM,,inhibition,10.9%
O=C1c2sc(-c3ccc(N4CCC(F)C4)nc3F)nc2CCN1c1cccnc1 (stereo not shown),CHRM3,"ligand displacement, radioligand",,1 µM,,inhibition,-6%
C[Si]1(C[C@H](CN)CC(=O)O)CCCC1,CHRM3,"ligand displacement, radioligand",,70 µM,,inhibition,11%
O=C(CCNC(=O)CNC(=O)CC(c1ccccc1)(c1ccccc1)c1ccccc1)NC[C@@H]1CCCN(Cc2ccc(F)cc2)C1,CHRM3,[3H]N-methylscopolamine competition,,,relative to: M4 over M3 Ki,selectivity ratio,> 45
COCC(=O)N1CCc2cc(-c3csc(NC(=O)c4cc(OC)cc(OC)c4)n3)ccc21,CHRM3,cell-free assay,,10 µM,,inhibition,0%
CCCCOc1ccc(C(=O)OCC[N+]2(C)CC=CCC2)cc1 (stereo not shown),CHRM3,,membranes,"1 µM, 15 h, with: carbachol",relative to: control,Emax,1.4 ± 0.1 fold
O=C(O)c1ccc(Nc2c(-c3ccccc3)nc3ccc(CON=Cc4ccccc4)cn23)cc1,TDP1,"enzyme activity, inhibitor",,"100 µM, unpurified compound",,inhibition,0.1%
CCCCCCOc1ccc(C(=O)OCCN2CC=CCC2)cc1,CHRM3,,membranes,"10 µM, 15 h, no carbachol",relative to: control,basal binding,0.92 ± 0.03 fold
C=CCn1c(=O)c2ccccc2n2c(SCC(=O)OC)nnc12,CHRM3,agonist,,"16 h, with: [3H]NMS",,maximal stimulation,141 ± 16%
COc1ccc(C#CC2=C[C@H]3C[C@@]4(OC(=O)C=C24)[C@H]2CC[C@H](C(OC)OC)N32)cc1,CHRM3,"ligand displacement, radioligand",,10 µM,,inhibition,-3%
C=CCn1c(=O)c2ccccc2n2c(SCC(=O)NC3CC3)nnc12,CHRM3,agonist,,"16 h, with: [3H]NMS",,maximal stimulation,128 ± 3%
CCCCOc1ccc(C(=O)OCCN2CC=CCC2)cc1,CHRM3,,membranes,"100 µM, 15 h, with: carbachol",relative to: control,Emax,1.48 ± 0.09 fold
C=CCn1c(=O)c2ccccc2n2c(SCC(=O)NCc3ccc(NC(C)=O)cc3)nnc12,CHRM3,agonist,,"16 h, with: [3H]NMS",,maximal stimulation,117 ± 7%
Brc1ccccc1-c1nnc(CSc2nnnn2-c2ccccc2)o1,CHRM3,"ligand displacement, radioligand",,10 µM,,inhibition,13%
COc1ncc2nc(C)n(Cc3ncc(S(N)(=O)=O)cc3F)c2c1-c1ccccc1,CHRM3,"agonist, cell-based",,10 µM,,activation,-0.209%
